Measurements from different studies.
Parts stem from different laboratories: compare values within a part only. Positions count from the first letter of the parent shown.

Sample 1
Target: UBE2B UBC core domain (UniProt P63146)
Chain of UniProt P63146 (whole entry, looked up): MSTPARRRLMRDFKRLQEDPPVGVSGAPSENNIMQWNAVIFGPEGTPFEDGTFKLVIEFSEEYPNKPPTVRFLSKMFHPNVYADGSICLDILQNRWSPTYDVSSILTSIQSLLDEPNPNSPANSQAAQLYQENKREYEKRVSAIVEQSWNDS
Technique: yeast two-hybrid
Medium: yeast
Setting: mostly zero background
Reference: not given
Direction: higher = stronger interaction
Measurement: lacZ reporter activity
B1: TRIM28 RING domain (UniProt Q13263); chain GAEALELLEHCGVCRERLRPEREPRLLPCLHSACSACLGPAAPAAANSSGDGGAAGDGTVVDCPVCKQQCFSKDIVE
B2: CBLL1 RING domain (UniProt Q75N03); chain GEKDDTPVHFCDKCGLPIKIYGRMIPCKHVFCYDCAILHEKKGDKMCPGCSDPVQRIEQCT
B3: TRIM47 RING domain (UniProt Q96LD4); chain MDGSGPFSCPICLEPLREPVTLPCGHNFCLACLGALWPHRGASGAGGPGGAARCPLCQEPFPDGLQLR
B4: TRIM2 RING domain (UniProt Q9C040); chain VRQIDKQFLICSICLERYKNPKVLPCLHTFCERCLQNYIPAHSLTLSCPVCRQTSILPEKGV
B5: RMND5B RING domain (UniProt Q96G75); chain MKCWYHSVFACPILRQQTSDSNPPIKLICGHVISRDALNKLINGGKLKCPYCPMEQNPADGK
B6: MDM2 RING domain (UniProt Q00987); chain TQDKEESVESSLPLNAIEPCVICQGRPKNGCIVHGKTGHLMACFTCAKKLKKRNKPCPVCRQPIQMIVLTYFP
B7: TRIM34 RING domain (UniProt Q9BYJ4); chain ILLNVQEEVTCPICLELLTEPLSLDCGHSLCRACITVSNKEAVTSMGGKSSCPVCGISYSFEHLQA
Sequence = B1 (TRIM28 RING domain); value = 0
Sequence = B2 (CBLL1 RING domain); value = 0
Sequence = B3 (TRIM47 RING domain); value = 0
Sequence = B4 (TRIM2 RING domain); value = 0
Sequence = B5 (RMND5B RING domain); value = 0
Sequence = B6 (MDM2 RING domain); value = 0
Sequence = AAQLLEEKLTCAICLGLYQDPVTLPCGHNFCGACIRDWWDRCGKACPECREPFPDGAELR (TRIM65 RING domain (UniProt Q6PJ69)); value = 0
Sequence = EIKDYKARLTCPCCNMRKKDAVLTKCFHVFCFECVKTRYDTRQRKCPKCNAAFGANDFHR (RNF20 RING domain (UniProt Q5VTR2)); value = 0
Sequence = EDVLSKDAGECAICLEELQQGDTIARLPCLCIYHKGCIDEWFEVNRSCPEHPSD (ZNRF2 RING domain (UniProt Q8NHG8)); value = 0
Sequence = B7 (TRIM34 RING domain); value = 0

Sample 2
Target: CCNA2, cyclin fold, Cln2 fusion (human)
Technique: yeast growth competition, sequencing
Medium: yeast
Setting: strong parent motif
Reference: not given
Direction: higher = stronger binding
Measurement: normalised enrichment score
Parent: PKN2 docking peptide (human); VSAVRKLDFSDTM
Change = VSAVFKLDFSDTM [R5F]; value = 0.641
Change = VSAFRKLDFSDTM [V4F]; value = 5.44
Change = VSAVRKLDQSDTM [F9Q]; value = -0.365
Change = VSAVRKLDFSDIM [T12I]; value = 5.22
Change = VSAVRKLDFSDQM [T12Q]; value = 5.36
Change = VNAVRKLDFSDTM [S2N]; value = 5.18
Change = VSAVRKLKFSDTM [D8K]; value = 4.59
Change = VQAVRKLDFSDTM [S2Q]; value = 5.23
Change = VSAVRKLDFSRTM [D11R]; value = 5.08
Change = VSAVRKQDFSDTM [L7Q]; value = -0.0486
Change = VSAVAKLDFSDTM [R5A]; value = 1.88
Change = VSAVRKLDSSDTM [F9S]; value = 0.236
Change = VSAARKLDFSDTM [V4A]; value = 5.46
Change = VSAWRKLDFSDTM [V4W]; value = 4.99
Change = VSAVRKLDFSDHM [T12H]; value = 5.29
Change = VSAVRRLDFSDTM [K6R]; value = 5.62
Change = VSAVRKLDFSYTM [D11Y]; value = 5.22
Change = VSAVRKLDFLDTM [S10L]; value = 4.62
Change = VSPVRKLDFSDTM [A3P]; value = 2.79
Change = VSAVRSLDFSDTM [K6S]; value = 4.71
Change = VSAVRKLDFIDTM [S10I]; value = 3.95
Change = VSAVHKLDFSDTM [R5H]; value = 0.823
Change = VSAVRKLDFFDTM [S10F]; value = 5.08
Change = VSAVRKLDDSDTM [F9D]; value = -0.411
Change = VSAVRKLDPSDTM [F9P]; value = 0.0292

Sample 3
Target: Prothrombin, mature alpha-thrombin (F2, Homo sapiens, UniProt P00734)
Technique: aptamer microarray, sandwich
Molecule type: DNA with 2'F-ANA
Medium: in vitro
Tested at: 200 nM
Setting: whole 15-mer aptamer, many near background
Added: Cy3 exosite-II aptamer, 400 nM
Direction: higher = stronger binding
Measurement: mean fluorescence intensity
Oligonucleotide: GGTTGGTGTGGTTGG
Modification = 2'F-ANA at 3 4 6 9 10 11 12 14; value = 185 a.u.
Modification = 2'F-ANA at 1 2 4 6 7 10 11 12 13; value = 63.5 a.u.
Modification = 2'F-ANA at 3 6 10 11 12; value = 576 a.u.
Modification = 2'F-ANA at 1 2 3 4 6 7 10 11 12 13 14; value = 91.2 a.u.
Modification = 2'F-ANA at 4 7 9 11; value = 469 a.u.
Modification = 2'F-ANA at 1 2 4 11 12 14; value = 50.9 a.u.
Modification = 2'F-ANA at 2 8 9 11 12 13 14 15; value = 158 a.u.
Modification = 2'F-ANA at 2 3 4 12 15; value = 879 a.u.
Modification = 2'F-ANA at 3 5 10 13 15; value = 51.2 a.u.
Modification = 2'F-ANA at 2 3 8 9 11 13 14 15; value = 361 a.u.
Modification = 2'F-ANA at 2 3 4 6 7 10 12 14; value = 182 a.u.
Modification = 2'F-ANA at 2 4 5 6 7 8 9 10 12 13 15; value = 53 a.u.
Modification = 2'F-ANA at 4 5 6 7 10 11 12 13 14 15; value = 49.6 a.u.
Modification = 2'F-ANA at 5 6 8; value = 83.5 a.u.
Modification = 2'F-ANA at 2 3 4 6 8 9 10 11 13; value = 158 a.u.
Modification = 2'F-ANA at 2 4 5 6 7 8 13 15; value = 80.8 a.u.
Modification = 2'F-ANA at 1 3 4 5 6 7 10 13; value = 46.6 a.u.
Modification = 2'F-ANA at 2 3 4 6 9 12 14 15; value = 275 a.u.

Sample 4
Target: CREB3L2, bZIP domain (human)
Technique: DHFR protein complementation
Medium: yeast
Setting: single substitutions, most at no-binding floor
Reference: wild-type JUN-FOS pair
Direction: higher = stronger binding
Measurement: binding fitness
Parent: JUN, bZIP domain (human); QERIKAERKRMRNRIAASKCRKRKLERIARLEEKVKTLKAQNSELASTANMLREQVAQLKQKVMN; partner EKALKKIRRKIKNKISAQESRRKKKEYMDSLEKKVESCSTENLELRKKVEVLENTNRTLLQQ
Change = E54K; value = -1.54 natural log
Change = Q58P; value = -1.52 natural log
Change = K36S; value = -1.46 natural log
Change = V56E; value = -1.52 natural log
Change = E32C; value = -1.41 natural log
Change = Q41I; value = -1.41 natural log
Change = L45A; value = -1.54 natural log
Change = L45N; value = -1.54 natural log
Change = Q55L; value = -1.29 natural log
Change = A29D; value = -1.47 natural log
Change = A40W; value = -1.42 natural log
Change = T48A; value = -1.48 natural log
Change = S43H; value = -1.49 natural log
Change = L31Q; value = -1.28 natural log

Sample 5
Target: ABI1, truncated, D143A, DHFR fusion (Arabidopsis thaliana)
Technique: DHFR PCA, deep sequencing
Medium: yeast
Setting: methotrexate growth selection, single substitutions
Added: (+)-ABA 17 µM
Reference: wild-type fitted maximum
Direction: higher = stronger binding
Measurement: relative binding score
Parent: PYL1, truncated, DHFR fusion (Arabidopsis thaliana); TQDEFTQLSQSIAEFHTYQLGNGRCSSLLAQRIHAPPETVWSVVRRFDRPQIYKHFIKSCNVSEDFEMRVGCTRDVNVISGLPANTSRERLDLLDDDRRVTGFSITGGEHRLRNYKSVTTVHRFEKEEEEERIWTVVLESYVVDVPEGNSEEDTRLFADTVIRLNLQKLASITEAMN
Change = G21Q; value = 81.5%
Change = Y18E; value = 50%
Change = G107Y; value = 12.3%
Change = R74N; value = -8.15%
Change = I105D; value = -14.4%
Change = E128V; value = 76.2%
Change = V78M; value = 62.3%
Change = S87A; value = 47.9%
Change = G107F; value = -0.783%
Change = V76I; value = 95.6%
Change = I79L; value = 41.9%
Change = I57P; value = -19.6%
Change = A170N; value = 21.5%
Change = H16T; value = 6.37%
Change = R123C; value = 73.4%
Change = Q10Y; value = 61.2%
Change = P36N; value = 75.7%
Change = W41P; value = 11.5%
Change = R111D; value = -1.99%
